Results gathered from unrelated publications.
Parts stem from different laboratories: compare values within a part only. Positions count from the first letter of the parent shown.

Sample 1
Target: RING finger protein unkempt homolog, zinc fingers 1-6, GST-SBP tag (UNK, Homo sapiens, UniProt Q9C0B0, residues 30-357)
UniProt Q9C0B0, sequence (30-357, looked up): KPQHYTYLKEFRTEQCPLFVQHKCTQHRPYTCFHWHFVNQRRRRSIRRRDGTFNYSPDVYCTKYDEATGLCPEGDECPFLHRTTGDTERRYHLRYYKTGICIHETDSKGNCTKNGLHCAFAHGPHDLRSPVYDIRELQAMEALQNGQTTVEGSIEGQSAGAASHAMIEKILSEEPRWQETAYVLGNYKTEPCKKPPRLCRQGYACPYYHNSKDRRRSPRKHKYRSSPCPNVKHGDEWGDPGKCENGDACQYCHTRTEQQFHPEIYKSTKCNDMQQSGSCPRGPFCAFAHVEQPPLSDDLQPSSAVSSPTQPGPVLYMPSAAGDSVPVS
Technique: RNA Bind-n-Seq
Molecule type: RNA
Medium: in vitro
Tested at: not given
Notes: RNA with constant flanks, human and mouse sites, ends assumed
Reference: input RNA pool
Direction: higher = stronger binding
Quantity: bound/input enrichment
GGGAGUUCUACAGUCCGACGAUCGAAGACAAGCCAGUGAACGUUAAUGAAGUACCUGACUAUCAAGAAGACAUUCACACGUACCUUAGGGAAAUGGAGGUUAAAUGUAAACCUAAAGUGGGUUACAUGAAGAGGCAGCCAGACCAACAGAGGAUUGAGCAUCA: 0.285 ratio
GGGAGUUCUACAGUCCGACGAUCAUGGACAUGCCUCUCGAACCUUCUGAGAAAGCCACGGAUCUCUCUUUAAAACCCACUUUGUCUGCCACAGAACCCUGCAGUACGAAAGUUGAAGAGAAGGCCCCCAGAAGUAAGAGUGAGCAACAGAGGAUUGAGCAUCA: 0.266 ratio
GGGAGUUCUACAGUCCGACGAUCGGUAUCAGAUCUCAAAACCAAGGCUCUCUUGCCCAGGGGAAAAGCUUUUUAAUGAGCAAAUUUUCAUCUCUAAAUCAAAAAGUAAAGCAGACCAAAUCCAAUGUGAACAUCGGCAACCUACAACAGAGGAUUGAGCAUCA: 0.158 ratio
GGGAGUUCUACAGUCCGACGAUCACUGAAAUACUAGUAAAUUACUUGAGUUUUUCACGAUGACUUCAGAGGAGGGGUCAUCACUAGGUGCUUUGUCCUUUUUGUACUAUGAUUCACCCAUCUCUUGGAUUGGAUGUAGCAAUACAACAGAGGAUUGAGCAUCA: 0.721 ratio
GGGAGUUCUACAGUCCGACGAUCGAUCACCAAUCACCAACACUAUUAAACAGCAAUCAAAAUUUACCAGACUGAAAAUUUUGUUUCUUUUUACAGAGAAGAAUGGUUUGUCAUUCAUUGAGACAUCUGCUCUAGAUUCUACAACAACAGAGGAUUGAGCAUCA: 0.108 ratio
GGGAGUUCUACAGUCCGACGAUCUUGAUCAGGGAAGACUUAGGGUUCAGAUUUAUAUCUGAGCAGGUCAGUCACCACCCUCCUAUUAGCGCAUUUUAUUCAGAAGGUCUCAAUCAAGACUUCAGGUUCCACGGUUCCAUCUACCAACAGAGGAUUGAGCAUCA: 38.4 ratio
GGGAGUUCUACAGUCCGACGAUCCACAGAAUGUUGUCUAUAGAAAAUGGGAGUUUACUUUAAACAUGGUUAGAACCCAAACAGCUUUUUAAAGUUAAAUGUGGAAACAAAUCAAUAAAUUAUAUGAACAAUUUAGAUACGGUACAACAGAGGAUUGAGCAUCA: 2.74 ratio
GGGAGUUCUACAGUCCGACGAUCUUCCUAAUAGAUACUAGAUUGUAUUGAAUUCUGUUUUAAUUAUUCUCUAGGUAAGUAUGUUUUAGGAUUAAAUACCUUUUACAGAUACUGAAAGUGCCUCCUUUUGUGGUGUAAAAAACACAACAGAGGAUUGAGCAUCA: 1.46 ratio
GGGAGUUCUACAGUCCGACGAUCUAUGUACCAAAUGUUCCAGAAGGUUCUGUGAGAAUUAUAGACCAAUCCAGCAAUGUGGAGAUAGCAUCUUUUCCAAUCUAUAAGGUGUUAUUCUGUGCACGUGGACAUGACGGAACAACACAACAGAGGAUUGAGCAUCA: 0.563 ratio
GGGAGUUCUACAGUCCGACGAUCAGUGAUGGUGAAAUGCCAAAAUUUGAUGGUGCUGGUUAUGAUAAGGAUCUGGUGGAAGCCCUUGAAAGAGACAUUGUAUCCAGGAAUCCUAGCAUUCAUUGGGAUGACAUAGCAGAUCUGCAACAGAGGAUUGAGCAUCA: 0.12 ratio
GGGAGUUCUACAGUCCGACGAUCGUCCUCACCGCCUGUUUCGGGUCCUUUGCUCACGGCGGCAAUGACGUGAGUAAUGCCAUCGGUCCCCUGGUAGCCUUGUGGCUGAUUUACAAACAAGGCGGGGUAACGCAAGAAGCAGCUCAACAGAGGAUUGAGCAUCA: 0.171 ratio

Sample 2
Target: ABI1, truncated, D143A, DHFR fusion (Arabidopsis thaliana)
Technique: DHFR PCA, deep sequencing
Medium: yeast
Notes: methotrexate growth selection, single substitutions
Together with: (+)-ABA 0.11 µM
Reference: wild-type fitted maximum
Direction: higher = stronger binding
Quantity: relative binding score
Starting sequence: PYL1, truncated, DHFR fusion (Arabidopsis thaliana); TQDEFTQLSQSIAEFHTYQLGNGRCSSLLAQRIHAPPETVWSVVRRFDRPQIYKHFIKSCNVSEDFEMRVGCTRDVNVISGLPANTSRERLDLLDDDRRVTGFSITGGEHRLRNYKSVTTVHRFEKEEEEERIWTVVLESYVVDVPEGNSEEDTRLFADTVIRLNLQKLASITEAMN
P50A: -5.6%
F157N: 1.76%
D97A: 36.3%
D3F: 38.3%
E89R: -2.36%
F66L: 2.34%
Q7P: 7.86%
G71P: 4.28%
L8C: 2.15%
N85R: 58.8%
L164P: 7.38%
T106V: 72%
L169T: 3.18%
P36I: -1.93%
E131K: 61.6%
G81L: 5.46%
R132A: 49.3%

Sample 3
Target: RNA binding protein fox-1 homolog 2, RRM domain, GST-SBP tag (RBFOX2, Homo sapiens, UniProt O43251-10, residues 100-194)
Technique: RNA Bind-n-Seq
Molecule type: RNA
Medium: in vitro
Tested at: 365 nM
Notes: natural RNA segment, single round, ends assumed
Reference: no-protein control
Direction: higher = stronger binding
Quantity: RBNS enrichment (R)
Residues (chain): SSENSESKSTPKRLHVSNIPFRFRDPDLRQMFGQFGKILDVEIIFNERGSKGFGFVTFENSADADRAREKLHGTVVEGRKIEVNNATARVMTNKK
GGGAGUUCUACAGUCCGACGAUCCCCCCAUGUACCCCCACCUGUGUUCCGUUUGACCAGCACAGAAAUAUUAAAGUCCUCUAUUUACCGGCCCUGUGUGUGUCACCAAGGUGAGAAAGGAGAGGGCCCUUGGAUGGAAUUCUCGGGUGCCAA: 0.664
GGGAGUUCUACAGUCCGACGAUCUAAAAGUGCACUUAAAAUGAAUCUUUAUUAUUGCUGAGAUUUUAAUAGACAAUCCAAAGUCUCCCCUUCUGUUGCCGUCAUCUUGUUUAAUCAACCAUUUUUCAAGGCACUGGAAUUCUCGGGUGCCAA: 0.495
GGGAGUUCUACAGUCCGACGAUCGAGAAUUCUAGAUAGAUAGCUAAUCUGCUUUUAAUCAUGACAUUUUAAUCUACCUCUGUCUCUUUAACCACGCUGUCUCUGGACUGAGUGUCAGGAGGGAAGAGGGGAGUUGGAAUUCUCGGGUGCCAA: 0.264
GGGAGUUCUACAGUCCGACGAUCUCAAAAUUAUAAUGCAGUUCUAAUGGUCAGCAUAUUUUGAUAUUAAAUUUAAAGAUCACCUCUCUGCAUUUGUUUUUAAAUUAUGCUAAUACACCACACAUUAUGUUGGUUGGAAUUCUCGGGUGCCAA: 0.352
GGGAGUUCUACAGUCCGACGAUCCAGACGCAGAUGGAGACUGAGGCCGGCUGUGCAUCCCCGCUGGUGCCUCGGCUGCGACGUGUCCAGGCGUGGAGAGUUUUGUGUUUCUCCUGUUCAGUAUCCGAGUCUCGUGGAAUUCUCGGGUGCCAA: 0.173
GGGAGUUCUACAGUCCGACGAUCGACCGAGCAGGAACAGAGGCUGCAGUUGGGCUGGCUGACUGAGGGUGCCUGGCUGCCCAGCCUGCGGUAGCCGUGCUCCCUGCCCUCCUGUGGCCCUAUGGUGUGAUGCUUGGAAUUCUCGGGUGCCAA: 7.02
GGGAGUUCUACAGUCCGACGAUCUUGAUGUUUUACAUUCUCCCUUACUGAAAUCUACAUGACAUGAUGCUUCUUGCUGGGUUUUUGUACAUGUAAACAUUGUCAAGCUGUGAAAGAAAAUGGCUGGAGGUGUGUGGAAUUCUCGGGUGCCAA: 0.72
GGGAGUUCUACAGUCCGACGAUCGGUGAGGGUGGCUUUCUUCCAGCCCCAAAUGAGACGAGUCUGUGUCAUCAUUGAAACUGCUUUUCGUAAUUGCGGGUAGGUUCCUGUAGGUGAGACAUAUUCUCCAUAAAUGGAAUUCUCGGGUGCCAA: 0.323
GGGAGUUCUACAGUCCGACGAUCUCAGCAGAAGUAACUGAAGUAGAUCAGGAAGGGGCUGCCUCAGGAAAAUUCCUAGAUCCUAGGAAUUCAGUGAGACCCUGGGAAGGACCAGCAUGCUAAUCAGUGUCAGUUGGAAUUCUCGGGUGCCAA: 0.598
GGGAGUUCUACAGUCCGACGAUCUGAGUUAUGUAAGAUUUAAAUAAAAGUUUGCUACCAAGAUGAUUGCCUUAUUGAAUAGGUCACUAUUAAAUUCCUUUAAAUGUUGAUAUCUGCCAUUUGUGGAAACAACGUGGAAUUCUCGGGUGCCAA: 0.522
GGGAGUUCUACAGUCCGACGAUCCAAAAAUAAAUGCAUGAAGAGACAUAGCCUUUUAGUUUUGCUAAUUGUGAAAUGGAAAUGCUUUACAGGAAGUAAAUGCAAAUUACUUUUAAGUGUGCUUUAAAGAAAAAUGGAAUUCUCGGGUGCCAA: 3.04
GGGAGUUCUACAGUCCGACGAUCGCCUCCUGGGUUCAAGCAGUUCUCUUGCCUCAGCCUCCCAAGUAGCUGGGAUGACAGGCGCACACCACCACGCCCAGCAAAUUUUUUGUAUUUUUAGUAGAAACGGGAUUUGGAAUUCUCGGGUGCCAA: 0.495

Sample 4
Target: CCNA2, cyclin fold, Cln2 fusion (human)
Technique: yeast growth competition, sequencing
Medium: yeast
Notes: strong parent motif
Reference: not given
Direction: higher = stronger binding
Quantity: normalised enrichment score
Starting sequence: SGO1 docking peptide (human); PLAKRALKYTDEK
PLAKRALAYTDEK [K8A]: 2.7
ALAKRALKYTDEK [P1A]: 2.12
PLAKRALKYADEK [T10A]: 3.75
PLAKRAAKYTDEK [L7A]: 0.736
PLAKRALKATDEK [Y9A]: 0.313

Sample 5
Target: Histone acetyltransferase KAT6A, winged helix 1, GST fusion (KAT6A, Homo sapiens, UniProt Q92794, residues 1-85)
Technique: protein binding microarray
Molecule type: double-stranded DNA, one strand shown
Medium: in vitro
Tested at: not given
Notes: 8-mer, flanks averaged, mean of 2 arrays, mostly near background
Reference: not given
Direction: higher = stronger binding
Quantity: E-score
Construct (chain): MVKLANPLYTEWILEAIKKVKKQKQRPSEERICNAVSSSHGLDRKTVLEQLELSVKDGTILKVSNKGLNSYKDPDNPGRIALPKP
TCGATCAA: -0.134
AACACTAT: -0.0361
CGCGGGCA: 0.394
CCACCGGG: 0.262
GGAAATTA: 0.00296
AATAATTA: -0.0549
CTTACGAC: -0.0176
GCAAAAAA: -0.0723
GTTCCAGA: -0.231
CGCCGTCA: 0.425
ATGTTACC: 0.153
ATAATCTC: -0.0528
GGGCTTAA: -0.00674
GCACGACA: -0.0454
AAAAGCAC: -0.172
AGAGGTAT: -0.0369
CTCAACCA: -0.138

Excerpt of the above (sample 2):
G81L: 5.46%
P36I: -1.93%
Q7P: 7.86%
R132A: 49.3%
N85R: 58.8%
L169T: 3.18%
F66L: 2.34%
